Results from different studies.
Every numbered part comes from another study and shows a few of its results, in no order. Changes are numbered by the printed parent chain.

Set 1
Target: Histone acetyltransferase KAT6A, winged helix 2, GST fusion (KAT6A, Homo sapiens, UniProt Q92794, residues 85-181)
Technique: protein binding microarray
Form: double-stranded DNA, one strand shown
Matrix: in vitro
Concentration: not given
Notes: 8-mer, flanks averaged, mean of 2 arrays, mostly near background
Reference: not given
Reading: higher = stronger binding
Construct (chain): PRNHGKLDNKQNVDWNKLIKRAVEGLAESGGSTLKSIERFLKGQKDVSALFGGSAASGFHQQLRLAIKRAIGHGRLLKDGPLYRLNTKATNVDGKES
Strand | E-score
GTACTTTA | -0.153
ATCGTCGC | 0.156
CATCTAGG | -0.146
GCTTGTTA | -0.0426
ACTATCCC | -0.289
CTATGTTC | -0.0599
GGTCACGA | -0.0306
CTCTCCGA | 0.0919
ACAGCGGG | 0.198
CAAACAAC | 0.141
AGGGTTAG | -0.164
ACTGCAGA | 0.0384
TCGGTCCA | -0.061
GTTCCGGA | 0.0522
ACGGATAA | -0.00915
AAAGTGGG | 0.0458
CTAACTAA | -0.0887
CGACGGCC | 0.0295
AGAAGAAA | 0.128
CATGTCGA | 0.00673
ACACAGGC | -0.0108
ACTGACAA | -0.0102
AGTGTTGC | 0.0677
TATGACGA | -0.0858
TCGTTCCA | -0.0682

Set 2
Target: ABI1, truncated, D143A, DHFR fusion (Arabidopsis thaliana)
Technique: DHFR PCA, deep sequencing
Matrix: yeast
Notes: methotrexate growth selection, single substitutions
With: (+)-ABA 4.8 µM
Reference: wild-type fitted maximum
Reading: higher = stronger binding
Starting sequence: PYL1, truncated, DHFR fusion (Arabidopsis thaliana); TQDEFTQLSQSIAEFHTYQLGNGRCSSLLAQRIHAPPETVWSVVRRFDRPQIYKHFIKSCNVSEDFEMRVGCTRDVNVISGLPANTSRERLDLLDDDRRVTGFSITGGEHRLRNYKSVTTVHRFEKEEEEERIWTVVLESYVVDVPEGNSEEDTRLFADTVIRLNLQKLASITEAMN; partner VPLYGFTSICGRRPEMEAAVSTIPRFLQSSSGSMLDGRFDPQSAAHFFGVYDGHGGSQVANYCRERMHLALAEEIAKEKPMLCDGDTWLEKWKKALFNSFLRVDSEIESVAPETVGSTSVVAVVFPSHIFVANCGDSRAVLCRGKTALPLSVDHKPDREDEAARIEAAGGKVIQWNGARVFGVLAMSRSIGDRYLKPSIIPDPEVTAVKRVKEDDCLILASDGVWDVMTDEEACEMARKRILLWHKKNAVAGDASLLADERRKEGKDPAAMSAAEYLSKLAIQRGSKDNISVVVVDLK
Variant | relative binding score
Q2L | 76.9%
T154Y | -13.2%
N77C | 77.9%
M176S | 54.4%
N77Y | 76.8%
P83I | 13.1%
E89W | -5.09%
I57T | -5.72%
F66I | 37.6%
I172F | 37.2%
E64T | 67.2%
K116V | 3.81%
R24N | 45.5%
K54P | 1.51%

Set 3
Target: Sal-like protein 4, full length isoform A (SALL4, Homo sapiens, UniProt Q9UJQ4, residues 1-1053)
Sequence of UniProt Q9UJQ4 (whole entry, looked up): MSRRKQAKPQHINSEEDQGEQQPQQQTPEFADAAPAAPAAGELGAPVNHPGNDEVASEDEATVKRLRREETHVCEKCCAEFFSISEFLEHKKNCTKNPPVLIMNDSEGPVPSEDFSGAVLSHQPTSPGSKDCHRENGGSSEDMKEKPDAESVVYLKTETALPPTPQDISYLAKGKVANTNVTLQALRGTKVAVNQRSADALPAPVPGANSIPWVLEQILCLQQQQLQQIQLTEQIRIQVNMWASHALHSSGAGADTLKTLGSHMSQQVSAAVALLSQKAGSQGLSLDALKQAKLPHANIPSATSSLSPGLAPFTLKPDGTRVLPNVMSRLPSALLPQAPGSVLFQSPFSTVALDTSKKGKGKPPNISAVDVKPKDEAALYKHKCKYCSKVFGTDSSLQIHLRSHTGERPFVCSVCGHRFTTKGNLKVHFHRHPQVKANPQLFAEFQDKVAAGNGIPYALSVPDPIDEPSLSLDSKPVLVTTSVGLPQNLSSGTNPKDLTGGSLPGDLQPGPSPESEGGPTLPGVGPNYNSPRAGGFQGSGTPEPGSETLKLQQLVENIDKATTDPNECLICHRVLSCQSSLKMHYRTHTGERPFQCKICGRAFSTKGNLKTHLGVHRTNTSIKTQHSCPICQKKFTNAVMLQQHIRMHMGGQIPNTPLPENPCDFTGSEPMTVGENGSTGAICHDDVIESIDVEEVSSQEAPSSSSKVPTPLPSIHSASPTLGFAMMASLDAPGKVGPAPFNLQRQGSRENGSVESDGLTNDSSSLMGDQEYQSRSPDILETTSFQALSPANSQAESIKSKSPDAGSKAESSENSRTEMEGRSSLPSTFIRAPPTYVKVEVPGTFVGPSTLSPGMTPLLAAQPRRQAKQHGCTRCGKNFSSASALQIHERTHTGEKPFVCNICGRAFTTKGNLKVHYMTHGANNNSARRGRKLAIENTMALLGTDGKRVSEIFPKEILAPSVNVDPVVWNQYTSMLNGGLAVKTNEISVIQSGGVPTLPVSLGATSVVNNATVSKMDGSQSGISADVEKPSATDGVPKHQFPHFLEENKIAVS
Technique: universal PBM
Form: double-stranded DNA, one strand shown
Matrix: in vitro
Concentration: 600 nM
Notes: 8-mer, flanks averaged, mean of replicates
Reading: higher = stronger binding
Strand | E-score
AGAGTTCC | -0.279
ATCGCGGG | -0.289
AATCGGGC | -0.117
GATCACAC | -0.119
CTCCTTCA | 0.0649
GGGTACCA | -0.274
CTATCACC | -0.0713
GCGCGTCA | -0.204
GGAGATCC | -0.272
ATTCACGC | 0.00173
CGAAGCAC | -0.137
AACGACTC | -0.181
CGCCGGGC | -0.407
AAGATCGG | -0.182
GAAAACAC | -0.0426
CCGCCACA | -0.275
AGACCCCG | -0.226
GGGTCAAA | -0.117
AGAGGGTC | -0.234
ATCAGGGC | -0.218
AAGGATCT | -0.035
CAATGGAA | 0.104

Set 4
Target: OGT, full length, His-tagged (human)
Technique: phage display, sequencing
Matrix: in vitro
Concentration: 1 µg OGT
Notes: single substitutions, 15-mer displayed peptide, unchanged parent 19.6
Reference: input library
Reading: higher = stronger binding
Starting sequence: peptide; TAPFYPPAYQIQVFK
Variant | fold enrichment [fold]
K15F | 5.96
Q12I | 5.44
Q12L | 5.68
V13D | 0.391
V13Q | 0.876
A2N | 16
A8H | 8.38
P3H | 17
P3Q | 23.3
F14G | 18.5
Q12T | 7.32
P3W | 19.1

Set 5
Target: Prothrombin, mature alpha-thrombin (F2, Homo sapiens, UniProt P00734)
Technique: aptamer microarray, sandwich
Form: DNA with 2'F-ANA
Matrix: in vitro
Concentration: 200 nM
Notes: whole 15-mer aptamer, many near background
With: Cy3 exosite-II aptamer, 400 nM
Reading: higher = stronger binding
Strand: GGTTGGTGTGGTTGG
Modification | mean fluorescence intensity
2'F-ANA at 1 4 6 7 9 12 13 15 | 140 a.u.
2'F-ANA at 1 2 3 4 5 8 10 13 14 | 45.8 a.u.
2'F-ANA at 1 6 8 12 14 15 | 76.8 a.u.
2'F-ANA at 2 4 6 7 10 11 13 15 | 65.3 a.u.
2'F-ANA at 1 2 5 8 9 10 | 47.1 a.u.
2'F-ANA at 1 2 5 6 10 11 | 56.3 a.u.
2'F-ANA at 1 2 3 7 8 12 | 637 a.u.
2'F-ANA at 2 3 5 6 8 9 10 11 12 13 14 15 | 52.7 a.u.
2'F-ANA at 1 2 3 4 5 7 10 11 12 13 | 50.9 a.u.
2'F-ANA at 2 4 5 6 8 14 15 | 154 a.u.
2'F-ANA at 5 6 7 12 13 14 | 68.7 a.u.
2'F-ANA at 1 5 6 8 11 13 | 50.6 a.u.
2'F-ANA at 1 2 5 7 9 13 | 48.2 a.u.
2'F-ANA at 1 3 6 9 10 11 12 13 14 | 79.6 a.u.
2'F-ANA at 1 5 7 9 10 11 13 14 15 | 49.2 a.u.
2'F-ANA at 1 6 9 10 13 15 | 55.4 a.u.
2'F-ANA at 2 5 6 9 11 12 13 14 | 47.3 a.u.
2'F-ANA at 1 2 3 6 7 11 12 13 14 15 | 76.7 a.u.
2'F-ANA at 1 2 3 4 5 8 10 12 13 14 15 | 52.8 a.u.
2'F-ANA at 2 3 5 6 7 12 13 14 15 | 56.8 a.u.
2'F-ANA at 2 4 5 6 8 9 12 14 | 51.1 a.u.
2'F-ANA at 2 3 4 7 8 10 12 14 15 | 193 a.u.
2'F-ANA at 1 3 4 7 13 14 | 71.4 a.u.
2'F-ANA at 4 6 7 11 | 239 a.u.
2'F-ANA at 1 3 4 7 8 12 13 14 | 107 a.u.

Set 6
Target: CCNA1, cyclin fold, Cln2 fusion (human)
Technique: yeast growth competition, sequencing
Matrix: yeast
Notes: weak parent motif
Reference: not given
Reading: higher = stronger binding
Starting sequence: CDC6 docking peptide (human); TLKGRRLVFDNQL; partner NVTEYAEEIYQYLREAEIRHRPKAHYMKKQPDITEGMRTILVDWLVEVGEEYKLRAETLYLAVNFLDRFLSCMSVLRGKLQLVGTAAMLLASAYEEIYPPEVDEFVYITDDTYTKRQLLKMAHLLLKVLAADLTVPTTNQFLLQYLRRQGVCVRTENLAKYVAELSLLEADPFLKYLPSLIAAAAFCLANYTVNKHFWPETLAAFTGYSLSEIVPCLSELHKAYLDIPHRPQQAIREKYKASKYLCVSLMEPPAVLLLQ
Variant | normalised enrichment score
TLKGRRLVGDNQL [F9G] | 0.151
TLKGRRLVFKNQL [D10K] | 0.142
TLKGRRLVFDNEL [Q12E] | -0.0623
THKGRRLVFDNQL [L2H] | 0.0721
TLKGRRLVFDNSL [Q12S] | -0.00251
TLKGRRLVFDHQL [N11H] | 0.155
TLKGRRLVFDSQL [N11S] | 0.16
TLPGRRLVFDNQL [K3P] | 0.458
TLKGRRTVFDNQL [L7T] | 0.00696
TLKGRRAVFDNQL [L7A] | 0.119
TLKGRRLVFDDQL [N11D] | 0.189
TLKGRRLVFDNYL [Q12Y] | 0.56
TLKGRRLVFDNGL [Q12G] | 0.512
TLKGRRKVFDNQL [L7K] | 0.286
TLKGSRLVFDNQL [R5S] | 0.00309
TLKGRRLVFCNQL [D10C] | 0.605
TLKGRRLDFDNQL [V8D] | 0.318
TLKGRRLVFDNWL [Q12W] | 0.421
TLKWRRLVFDNQL [G4W] | -0.0537
TLKGRRPVFDNQL [L7P] | -0.156

Further values, each from its own experiment
Substance | target | test | test system | conditions | scale | endpoint | result
PhoQ, residues 284 288 289 292 302 303 AGGLSV | PhoP, residues 12 14 15 18 19 TPWLV (Escherichia coli, UniProt P23836) | Sort-seq, refers to: YFP reporter | E. coli | PhoQ-PhoP variant library, with: 10 µM Mg2+ | reference: high Mg2+ state, higher = stronger signaling | fold induction | 0.498

Repeated from above (set 3):
Strand | E-score
ATCGCGGG | -0.289
AATCGGGC | -0.117
GATCACAC | -0.119
CTCCTTCA | 0.0649
GGGTACCA | -0.274
CTATCACC | -0.0713
GCGCGTCA | -0.204
GGAGATCC | -0.272
